Measured values of several laboratories.
Each line is one published result; not all experiments were run side by side. Numbers after ± are the reported error.

Compound | assay | test system | conditions | half-life [min]
C#Cc1c(F)ccc2cc(O)cc(-c3ncc4c(N5CC6CCC(C5)N6C(=O)OCc5ccc(NC(=O)OCCCC)cc5)nc(OC[C@@]56CCCN5C[C@H](F)C6)nc4c3F)c12 | – | mouse whole blood | 1 µM | 347
CC(C)C[C@@H]1NC(=O)Cc2ccc(nc2)-c2ccc(nc2)CSC[C@@H](C(=O)N[C@@H](CCC(=O)O)C(=O)N[C@@H](CC(C)C)C(=O)N[C@@H](Cc2c[nH]cn2)C(=O)N2CCC[C@H]2C(=O)N[C@@H](CC(C)C)C(=O)N[C@@H](CCCCN)C(=O)N2CCC[C@H]2C(=O)NCC(=O)N[C@@H](CS)C(=O)NCC(N)=O)NC(=O)[C@H](Cc2ccc(O)cc2)NC(=O)[C@H](CCCCN)NC(=O)[C@H](CCC(N)=O)NC(=O)[C@H](C(C)C)NC1=O | – | human serum | 10 µM, 37 °C | 1560
Cc1ccc(OCCN(C)C)cc1C(=O)N[C@H](C)c1cc(-c2cnn(C)c2)cc(-c2ccn(C)n2)c1 | – | mouse liver microsomes | – | 88.3
C#Cc1c(F)ccc2cc(O)cc(-c3ncc4c(N5CC6CCC(C5)N6C(=O)OCc5ccc(OC(=O)CCCC)cc5)nc(OC[C@@]56CCCN5C[C@H](F)C6)nc4c3F)c12 | – | mouse whole blood | 1 µM | 0.65
CC(=O)N[C@@H](Cc1ccc(O)cc1)C(=O)N[C@@H](CCCNC(=N)N)C(=O)N[C@@H](Cc1ccccc1)C(=O)NCCC(=O)N[C@@H](CCCNC(=N)N)C(=O)N[C@@H](CC(N)=O)C(=O)NCCC(=O)N[C@H](C(=O)N[C@@H](Cc1ccccc1)C(=O)NCCC(=O)N[C@@H](Cc1ccccc1)C(=O)N[C@@H](Cc1ccc(O)cc1)C(=O)NCCC(=O)N[C@H](C(=O)N[C@@H](CC(=O)O)C(N)=O)[C@@H](C)O)C(C)C | LC-MS | human serum | 10 µM, 37 °C | 35.4
CCc1ccc([C@@H]2C[C@H](C(F)(F)F)n3ncc(C(=O)NCc4ccc(OC)cc4)c3N2)cc1 | – | mouse liver microsomes | – | > 30
CC(COC(=O)c1ccccc1)OC(=O)C(N)Cc1ccccc1 (mixture of isomers) | – | rat intestinal homogenate | 37 °C | < 60
C/C(=N\OCCCN1CCCCC1)c1ccc(C(F)(F)F)cc1 | – | human plasma | – | > 770
C[C@H](N)C(=O)N[C@@H](CCCCN)C(=O)NCC(=O)N[C@@H](Cc1cccc(I)c1)C(=O)O | – | – | 50 µM, pH 7.4, 25 °C, with: trypsin | 21
c1cc2c(s1)CCOC21CCN(Cc2ccc3c(c2)OCCO3)CC1 | – | human liver microsomes | – | 5.2
CC[C@H](C)[C@@H]1NC(=O)[C@H](CC(N)=O)NC(=O)[C@@H]2CCCN2C(=O)[C@@H](NC(=O)[C@H](CC(N)=O)NC(=O)[C@@H](N)CCC(N)=O)COC(=O)[C@H](CCSC)NC(=O)[C@H](Cc2c[nH]c3ccccc23)NC(=O)[C@H](CCC(N)=O)NC(=O)CNC(=O)[C@H](Cc2ccccc2)N(C)C1=O | – | human plasma diluted with PBS | 0.28 mM, pH 7.2, 37 °C | < 30
COc1ccc2nc(C)cc(OCC(=O)Nc3ccccc3OC)c2c1 | – | human liver microsomes | – | 16.7
N=C(N)NCCC[C@H](NC(=O)CN)C(=O)N[C@@H](CCCCN)C(=O)N[C@@H](CCCCN)C(=O)N[C@@H](CCCNC(=N)N)C(=O)N[C@@H](CCCNC(=N)N)C(=O)N[C@@H](CCC(N)=O)C(=O)N1Cc2ccccc2C[C@H]1C(=O)N1[C@@H](C(=O)N[C@@H](CCCNC(=N)N)C(=O)N2CCC[C@H]2C(=O)N[C@@H](CO)C(=O)O)C[C@H]2CCCC[C@H]21 | – | human plasma | 500 µM, 37 °C | 136
CC(C)(C)C(=O)OCOP(=O)(OCOC(=O)C(C)(C)C)C1CCCN(O)C1=O (centres unmarked) | – | human blood | ex vivo | ~9
CCC(CC)OC1C=C(C(=O)OC(C)OC(=O)C(N)C(C)CC)CC(NC(=N)N)C1NC(C)=O (mixture of isomers) | – | Caco-2 cell homogenate | pH 7.4, 37 °C, 500 µg/mL protein | 26.4 ± 3.1
CC(COC(=O)c1ccccc1)OC(=O)C(N)C(C)C (mixture of isomers) | – | Caco-2 cell homogenate | pH 7.4, 37 °C, 500 µg/mL protein | ~43
CC(=O)N[C@H](Cc1ccc(O)cc1)C(=O)N[C@@H](CCCNC(=N)N)C(=O)N[C@@H](Cc1ccccc1)C(=O)N[C@H]1CCC[C@@H]1C(=O)N[C@@H](CCCNC(=N)N)C(=O)N[C@@H](CC(N)=O)C(=O)N[C@H]1CCC[C@@H]1C(=O)N[C@H](C(=O)N[C@@H](Cc1ccccc1)C(=O)N[C@H]1CCC[C@@H]1C(=O)N[C@@H](Cc1ccccc1)C(=O)N[C@@H](Cc1ccc(O)cc1)C(=O)N[C@H]1CCC[C@@H]1C(=O)N[C@H](C(=O)N[C@@H](CC(=O)O)C(N)=O)[C@@H](C)O)C(C)C | LC-MS | human serum | 10 µM, 37 °C | 660
CC[C@H](C)[C@@H]1NC(=O)CNC(=O)[C@@H]2CSSC[C@@H]3NC(=O)[C@H](Cc4ccc(O)cc4)NC(=O)[C@@H](NC(=O)[C@H](CC(C)C)NC(=O)[C@H](CC(C)C)NC(=O)CN)CSSC[C@@H](C(=O)N4CCC[C@H]4C(=O)N[C@@H](CCCNC(=N)N)C(=O)N[C@@H](CCCNC(=N)N)C(=O)O)NC(=O)[C@H](CSSC[C@H](NC(=O)[C@H](Cc4c[nH]cn4)NC(=O)CNC(=O)[C@H](CCCCN)NC(=O)[C@H](CCCNC(=N)N)NC3=O)C(=O)N[C@@H](CCCCN)C(=O)N[C@@H](CCCNC(=N)N)C(=O)NCC(=O)N[C@@H](CCC(=O)O)C(=O)N[C@@H](CCCNC(=N)N)C(=O)N[C@@H](C(C)C)C(=O)N[C@@H](CCCNC(=N)N)C(=O)NCC(=O)N[C@@H]([C@@H](C)O)C(=O)N2)NC(=O)[C@H](Cc2ccc(O)cc2)NC(=O)[C@H](CC(C)C)NC(=O)[C@H](Cc2ccccc2)NC(=O)[C@H](CCCNC(=N)N)NC1=O | – | 100% human serum | 27 µM, 37 °C, heat-inactivated serum | > 2880
N=C(N)NCCC[C@@H]1NC(=O)[C@H](CCCNC(=N)N)NC(=O)[C@H](CCCNC(=N)N)NC(=O)[C@H](CCCNC(=N)N)NC(=O)[C@H](Cc2c[nH]c3ccccc23)NC(=O)[C@H](CCCNC(=N)N)NC(=O)[C@H](CCCNC(=N)N)NC(=O)[C@@H](N)CCCCn2cc(nn2)C[C@@H](C(N)=O)NC1=O | trypsin degradation, HPLC | PBS | pH 7.4, 37 °C, with: trypsin 0.1 ng/mL | 22.3
Cc1ccc(OCCN(C)C)cc1C(=O)N[C@H](C)c1cc(-c2cnn(CCN3CCOCC3)c2)cc(-c2ccn(C)n2)c1 | – | mouse liver microsomes | – | > 145
C[C@]12C(=O)[C@](C)(C(c3ccccc3)=C1c1ccccc1)C1(Br)C(=O)N(CCN)C(=O)C12 (some centres unmarked) | CO release, HPLC | TRIS-sucrose buffer | pH 7.4, 4 to 5 °C | 1860
CC(C)(C)NC(=O)[C@@H]1C[C@@H]2CCCC[C@@H]2CN1C[C@@H](OC(=O)CCC(=O)OC[C@H](O)[C@H]1OC(=O)C(O)=C1O)[C@H](Cc1ccccc1)NC(=O)[C@H](CC(N)=O)NC(=O)c1ccc2ccccc2n1 | – | – | pH 7.4 | 579 ± 18
N#Cc1ccc(NC(=O)c2cccnc2)cc1Cl | chemical stability | buffer | 5 µM, pH 10.0, 37 °C | 39.2 ± 8.7
NC1CCN(C(=O)OC2CCCC3(C2)OOC2(O3)C3CC4CC(C3)CC2C4)CC1 (centres unmarked) | – | mouse liver microsomes | – | 9
Cc1cccc(-c2nc(Nc3ccncn3)c3sccc3n2)n1 | – | human liver microsomes | – | 22
CC[C@H](C)[C@@H]1NC(=O)[C@H](Cc2ccc(O)cc2)NC(=O)[C@@H](N)CSCSC[C@@H](C(=O)N2CCC[C@H]2C(=O)N[C@@H](CC(C)C)C(=O)NCC(N)=O)NC(=O)[C@H](CC(N)=O)NC(=O)[C@H](CCC(N)=O)NC1=O | – | phosphate buffer | 0.1 mg/mL, pH 9.0, 55 °C | 4320
Cc1ccc2nc(C)c(C(=O)NCc3ccc(C(F)(F)F)cc3)n2c1 | – | marmoset liver microsomes | 2 µM | 10
CC(C)[C@H](N)C(=O)OCOC(=O)c1ccccc1.O=C(O)C(F)(F)F | – | isotonic buffer | pH 4.0, 37 °C | 1310
CCCCCc1cc(OC(=O)C(NC(=O)CCC(=O)O)C(C)C)c2c(c1)OC(C)(C)C1CCC(C)=CC21 (centres unmarked) | – | Cremophor RH 40 in isotonic phosphate buffer | pH 7.3, 25 °C | 93600

Repeated from above:
Compound | assay | test system | conditions | half-life [min]
Cc1ccc(OCCN(C)C)cc1C(=O)N[C@H](C)c1cc(-c2cnn(C)c2)cc(-c2ccn(C)n2)c1 | – | mouse liver microsomes | – | 88.3
C#Cc1c(F)ccc2cc(O)cc(-c3ncc4c(N5CC6CCC(C5)N6C(=O)OCc5ccc(OC(=O)CCCC)cc5)nc(OC[C@@]56CCCN5C[C@H](F)C6)nc4c3F)c12 | – | mouse whole blood | 1 µM | 0.65
